Measurements collected from several papers.
Lines come from different studies, so protocols differ. ± marks the error that the study gave.
Organism: Salmonella typhimurium

SMILES | assay | system | conditions | how to read | quantity | result
COc1cccc(-c2n[nH]c(SCc3ccccn3)n2)c1OC | Ames test, plate incorporation | TA98 | 0.13 mg/plate, with rat liver S9 |  | revertant colonies per plate | 34
CNC(=O)c1c(N(C)N=O)ncn1C | plate incorporation | TA100, water | 2500 µg/plate, without S9 |  | revertant colonies per plate | 197 ± 21
O=[N+]([O-])c1ccc(NC2CCNCC2)c(C(F)(F)F)c1 | SOS/umu test | TA1535/pSK1002 | 0.008 mg/mL, 4 h, with S9, full range |  | survival | 102%
CC(=O)N1CCC(C(=O)N2CCN3C(=O)c4cc(-c5ccccc5)ccc4NC(=O)C3C2)CC1 (stereo not drawn) |  | TA98 | 500 µg/plate | baseline: vehicle | fold increase in revertants | 1.2
N#C[C@@]1(n2ccc(N)nc2=O)O[C@H](CO)[C@@H](O)[C@H]1O |  | TA1535 | 10 µM, without S9 |  | viability | 106%
Cc1cc(C(=O)NC(C)(C)COc2cccc3c2C(N)=NS(=O)(=O)N3)cc(C)n1 | Ames test, confirmatory | TA100 | 1000 µg/plate, with: rat liver S9 | baseline: solvent control | revertant ratio | 1
O=[N+]([O-])c1ccc(N2CCN(CCC(O)c3ccc(F)cc3)CC2)c(C(F)(F)F)c1 (stereo not drawn) | SOS/umu test | TA1535/pSK1002 | 0.25 mg/mL, 4 h, with S9, lower range |  | survival | 81.7%
COCCN(CCOC)N=O | mutagenicity, Ames plate incorporation | TA1537 | 500 µg/plate, 3 d, without S9, methanol |  | revertant colonies per plate | 10.3 ± 6
O=[N+]([O-])c1ccc(N2CCC(NCCC(O)c3ccc(F)c4ccccc34)CC2)c(C(F)(F)F)c1 (stereo not drawn) | SOS/umu test | TA1535/pSK1002 | 0.063 mg/mL, 4 h, with S9, full range |  | survival | 85.1%
CN(N=O)c1ccc(F)cc1 | mutagenicity, Ames plate incorporation | TA1535 | 150 µg/plate, 3 d, without S9, methanol |  | revertant colonies per plate | 14.7 ± 1
OC(CCN1CC=C(c2ccc(F)cc2)CC1)c1ccc(F)c2ccccc12 (stereo not drawn) | genotoxicity, SOS/umu test | TA1535/pSK1002 | 0.125 mg/mL, 4 h, without S9, lower range |  | induction factor | 0.3
CN(CC(C)(C)C)N=O | mutagenicity, Ames plate incorporation | TA1537 | 1500 µg/plate, without S9, methanol |  | revertant colonies per plate | 11.3 ± 2

For quick reference, copied from above:
SMILES | assay | system | conditions | how to read | quantity | result
COCCN(CCOC)N=O | mutagenicity, Ames plate incorporation | TA1537 | 500 µg/plate, 3 d, without S9, methanol |  | revertant colonies per plate | 10.3 ± 6
